Measurements from different studies.
Parts stem from different laboratories: compare values within a part only.
UniProt P16234, sequence (whole entry, looked up): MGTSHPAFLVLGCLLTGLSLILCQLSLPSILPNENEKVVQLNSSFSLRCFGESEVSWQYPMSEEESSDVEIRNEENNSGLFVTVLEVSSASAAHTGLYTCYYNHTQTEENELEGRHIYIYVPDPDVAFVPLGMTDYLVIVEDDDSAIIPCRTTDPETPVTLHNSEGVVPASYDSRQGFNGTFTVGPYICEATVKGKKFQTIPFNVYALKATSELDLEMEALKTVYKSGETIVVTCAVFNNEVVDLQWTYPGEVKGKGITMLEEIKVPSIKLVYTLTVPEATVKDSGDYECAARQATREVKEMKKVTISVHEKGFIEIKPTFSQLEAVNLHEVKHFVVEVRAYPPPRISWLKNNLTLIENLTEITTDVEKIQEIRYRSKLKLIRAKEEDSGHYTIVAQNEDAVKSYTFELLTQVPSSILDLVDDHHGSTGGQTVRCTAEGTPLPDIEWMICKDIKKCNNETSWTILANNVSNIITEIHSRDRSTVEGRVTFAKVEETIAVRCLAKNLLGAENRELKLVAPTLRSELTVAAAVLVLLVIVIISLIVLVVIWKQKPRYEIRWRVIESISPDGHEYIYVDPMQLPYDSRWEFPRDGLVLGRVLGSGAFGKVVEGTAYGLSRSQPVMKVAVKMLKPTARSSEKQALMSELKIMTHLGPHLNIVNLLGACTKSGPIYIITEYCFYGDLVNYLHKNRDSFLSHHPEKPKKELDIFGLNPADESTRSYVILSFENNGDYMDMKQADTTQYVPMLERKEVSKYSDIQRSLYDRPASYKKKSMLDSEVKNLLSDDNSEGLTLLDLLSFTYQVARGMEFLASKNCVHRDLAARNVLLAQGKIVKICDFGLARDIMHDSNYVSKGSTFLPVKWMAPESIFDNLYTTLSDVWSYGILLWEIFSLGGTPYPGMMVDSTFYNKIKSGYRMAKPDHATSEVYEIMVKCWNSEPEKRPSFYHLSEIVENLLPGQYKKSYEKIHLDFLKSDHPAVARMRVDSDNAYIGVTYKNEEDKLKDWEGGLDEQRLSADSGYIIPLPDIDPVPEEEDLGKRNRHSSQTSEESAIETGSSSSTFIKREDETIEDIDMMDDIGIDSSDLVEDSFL
UniProt Q99640, sequence (whole entry, looked up): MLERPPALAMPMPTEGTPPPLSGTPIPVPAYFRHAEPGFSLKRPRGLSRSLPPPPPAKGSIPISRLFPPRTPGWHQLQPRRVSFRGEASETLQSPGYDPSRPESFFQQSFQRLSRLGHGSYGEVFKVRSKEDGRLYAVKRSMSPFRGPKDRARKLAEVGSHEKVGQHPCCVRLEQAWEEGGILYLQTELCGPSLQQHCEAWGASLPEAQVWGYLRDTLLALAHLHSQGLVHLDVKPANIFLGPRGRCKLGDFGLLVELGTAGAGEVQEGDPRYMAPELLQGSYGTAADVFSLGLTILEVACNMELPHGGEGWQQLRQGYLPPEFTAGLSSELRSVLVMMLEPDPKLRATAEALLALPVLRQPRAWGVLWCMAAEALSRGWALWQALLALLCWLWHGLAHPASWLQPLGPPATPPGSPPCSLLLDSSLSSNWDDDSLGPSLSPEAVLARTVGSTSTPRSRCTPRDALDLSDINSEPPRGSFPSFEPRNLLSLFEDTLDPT
UniProt Q6DT37, sequence (whole entry, looked up): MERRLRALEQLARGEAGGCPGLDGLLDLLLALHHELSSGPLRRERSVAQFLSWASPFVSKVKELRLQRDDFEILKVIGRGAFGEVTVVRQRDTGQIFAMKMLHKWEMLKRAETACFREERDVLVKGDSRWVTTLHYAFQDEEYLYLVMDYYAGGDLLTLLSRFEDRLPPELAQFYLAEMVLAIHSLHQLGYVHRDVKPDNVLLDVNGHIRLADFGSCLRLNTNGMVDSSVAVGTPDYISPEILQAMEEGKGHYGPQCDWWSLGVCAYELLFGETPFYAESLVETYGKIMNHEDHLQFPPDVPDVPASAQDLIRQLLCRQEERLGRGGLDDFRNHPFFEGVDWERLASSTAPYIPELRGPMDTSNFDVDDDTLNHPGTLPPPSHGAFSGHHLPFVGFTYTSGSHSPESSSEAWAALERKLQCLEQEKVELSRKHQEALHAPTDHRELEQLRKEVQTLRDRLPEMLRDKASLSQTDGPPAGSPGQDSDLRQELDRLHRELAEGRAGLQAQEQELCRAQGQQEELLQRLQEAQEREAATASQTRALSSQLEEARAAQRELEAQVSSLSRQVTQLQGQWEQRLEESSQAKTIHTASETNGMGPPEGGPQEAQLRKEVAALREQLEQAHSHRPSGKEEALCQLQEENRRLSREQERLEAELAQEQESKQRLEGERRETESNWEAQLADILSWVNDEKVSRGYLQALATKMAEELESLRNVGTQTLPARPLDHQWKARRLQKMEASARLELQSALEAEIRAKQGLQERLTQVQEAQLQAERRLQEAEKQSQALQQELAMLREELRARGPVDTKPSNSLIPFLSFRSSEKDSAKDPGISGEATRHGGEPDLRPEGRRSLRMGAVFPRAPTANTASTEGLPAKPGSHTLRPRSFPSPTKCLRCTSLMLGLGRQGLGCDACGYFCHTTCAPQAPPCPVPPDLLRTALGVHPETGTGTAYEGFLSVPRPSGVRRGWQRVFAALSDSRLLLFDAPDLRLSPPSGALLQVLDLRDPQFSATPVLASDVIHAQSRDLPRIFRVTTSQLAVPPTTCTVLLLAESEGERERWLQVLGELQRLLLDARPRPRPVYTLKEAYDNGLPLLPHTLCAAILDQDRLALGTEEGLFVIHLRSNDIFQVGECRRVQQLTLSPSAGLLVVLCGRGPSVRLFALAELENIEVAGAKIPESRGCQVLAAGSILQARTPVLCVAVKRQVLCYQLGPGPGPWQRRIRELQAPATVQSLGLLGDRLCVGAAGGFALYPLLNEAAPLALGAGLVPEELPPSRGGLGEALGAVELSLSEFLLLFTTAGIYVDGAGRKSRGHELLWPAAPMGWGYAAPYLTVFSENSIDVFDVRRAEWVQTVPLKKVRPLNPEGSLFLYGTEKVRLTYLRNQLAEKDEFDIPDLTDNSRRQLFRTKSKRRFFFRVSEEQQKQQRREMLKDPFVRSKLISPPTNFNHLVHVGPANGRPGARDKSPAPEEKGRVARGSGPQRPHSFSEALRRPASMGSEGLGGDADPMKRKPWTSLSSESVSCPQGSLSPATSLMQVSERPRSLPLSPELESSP
UniProt P10721, sequence (whole entry, looked up): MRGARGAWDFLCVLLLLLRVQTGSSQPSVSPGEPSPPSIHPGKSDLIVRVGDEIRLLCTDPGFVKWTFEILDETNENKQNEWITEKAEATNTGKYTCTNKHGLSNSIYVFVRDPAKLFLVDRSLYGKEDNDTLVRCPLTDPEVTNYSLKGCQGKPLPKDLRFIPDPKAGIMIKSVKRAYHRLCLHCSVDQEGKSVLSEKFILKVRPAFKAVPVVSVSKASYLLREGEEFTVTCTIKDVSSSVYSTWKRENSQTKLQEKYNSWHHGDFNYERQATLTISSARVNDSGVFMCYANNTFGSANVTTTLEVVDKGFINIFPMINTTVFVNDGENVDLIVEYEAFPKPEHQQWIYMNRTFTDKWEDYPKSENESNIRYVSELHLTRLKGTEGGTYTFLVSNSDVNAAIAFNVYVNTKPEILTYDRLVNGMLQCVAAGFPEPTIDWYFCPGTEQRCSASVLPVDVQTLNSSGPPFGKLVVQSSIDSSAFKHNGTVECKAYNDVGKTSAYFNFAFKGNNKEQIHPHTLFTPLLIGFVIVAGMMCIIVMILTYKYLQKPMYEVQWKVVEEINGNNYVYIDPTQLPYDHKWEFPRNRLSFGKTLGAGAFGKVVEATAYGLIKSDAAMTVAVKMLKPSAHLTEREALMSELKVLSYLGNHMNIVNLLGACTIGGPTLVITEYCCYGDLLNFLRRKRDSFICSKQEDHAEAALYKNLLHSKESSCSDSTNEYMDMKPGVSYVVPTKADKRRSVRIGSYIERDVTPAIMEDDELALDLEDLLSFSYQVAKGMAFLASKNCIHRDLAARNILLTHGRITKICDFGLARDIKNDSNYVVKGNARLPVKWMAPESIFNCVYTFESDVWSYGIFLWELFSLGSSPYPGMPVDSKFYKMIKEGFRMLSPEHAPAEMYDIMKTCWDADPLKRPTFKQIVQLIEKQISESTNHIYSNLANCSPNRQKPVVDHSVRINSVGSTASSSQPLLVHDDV
UniProt P11802, sequence (whole entry, looked up): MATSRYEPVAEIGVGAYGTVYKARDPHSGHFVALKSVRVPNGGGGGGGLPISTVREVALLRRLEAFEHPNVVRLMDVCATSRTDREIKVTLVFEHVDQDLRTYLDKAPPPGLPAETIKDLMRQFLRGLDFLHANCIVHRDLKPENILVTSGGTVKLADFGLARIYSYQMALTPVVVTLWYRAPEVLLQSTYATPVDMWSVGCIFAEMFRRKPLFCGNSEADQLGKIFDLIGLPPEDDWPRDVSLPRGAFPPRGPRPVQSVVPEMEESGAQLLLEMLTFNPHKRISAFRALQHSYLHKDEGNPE
UniProt O14730, sequence (whole entry, looked up): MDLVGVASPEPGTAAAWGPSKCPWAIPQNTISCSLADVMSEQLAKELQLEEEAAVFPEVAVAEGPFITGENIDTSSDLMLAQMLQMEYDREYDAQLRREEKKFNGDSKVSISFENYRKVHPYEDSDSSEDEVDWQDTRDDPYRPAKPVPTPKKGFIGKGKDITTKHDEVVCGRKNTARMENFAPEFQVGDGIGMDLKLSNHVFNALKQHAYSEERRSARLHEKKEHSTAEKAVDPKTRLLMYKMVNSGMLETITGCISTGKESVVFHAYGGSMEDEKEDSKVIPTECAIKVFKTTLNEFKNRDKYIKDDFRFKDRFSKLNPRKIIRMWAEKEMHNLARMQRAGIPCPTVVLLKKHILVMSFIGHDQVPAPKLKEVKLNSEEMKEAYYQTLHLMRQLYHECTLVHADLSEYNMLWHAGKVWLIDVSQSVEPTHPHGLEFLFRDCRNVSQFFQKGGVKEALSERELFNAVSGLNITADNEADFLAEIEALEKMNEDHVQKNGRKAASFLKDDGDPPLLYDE

Series 1
Cell line: A-375
Concentration: 100 µM
Time: 36 h
Structure (SMILES) | viability [%]
C=C1[C@H](CO)[C@@H](O)C[C@@H]1n1cnc2c(=O)[nH]c(N)nc21 | 109
CC1=C(C(=O)O)N2C(=O)[C@@H](NC(=O)[C@H](N)c3ccc(O)cc3)[C@H]2SC1 | 104
Oc1c(I)cc(I)c2cccnc12 | 21.6

Series 2
Cell line: Huh-7
Concentration: 10 µM
Time: 24 h
Compound | viability
CC12CC3CC(C)(C1)CC(N)(C3)C2 | 99.4%
CC1=C(/C=C/C(C)=C/C=C/C(C)=C/C(=O)O)C(C)(C)CCC1 | 97.1%
CCCCN(CCCC)CCCOC(=O)c1ccc(N)cc1 | 103%

Series 3
Observed: AlphaScreen signal
Method: AlphaScreen counter screen
Medium: His6 peptide without bromodomain
Concentration: 50 µM
Notes: assay interference check
Structure (SMILES) | inhibition
COc1cc(/C=C/C(=O)CC(=O)/C=C/c2ccc(O)c(OC)c2)ccc1O.COc1cc(C=CC(=O)CC(=O)C=Cc2ccc(O)c(OC)c2)ccc1O | 66.4%
O=C(Nc1nccs1)c1n[nH]c2ccccc12 | 7.65%
CCCCCOc1ccc(NC(=O)Nc2ccc(Cl)c(Cl)c2)cc1 | -0.25%
Cc1nc(Nc2ncc(C(=O)Nc3c(C)cccc3Cl)s2)cc(N2CCN(CCO)CC2)n1 | 23%

Series 4
Host: mouse
Medium: microsomes or S9
Concentration: 2 µM
Time: 0.5 h
Structure (SMILES) | remaining compound
CC(C)=C1CC[C@H](C)[C@](C)(COc2ccc3ccc(=O)oc3c2)[C@@H]1CCC(N)=O | 0%
CCc1ccc(S(=O)(=O)c2nnn3c2[nH]c(=O)c2sccc23)cc1 | 63.7%
O=C(NC1CCOCC1)N1CCC(CCc2ccc(O)cc2)CC1 | 93.3%

Series 5
Cell line: mouse MPNST tumor cells
Method: high-content nuclear imaging
Item: cell number
Concentration: 10 µM
Time: 12 h
Notes: mean of 2 replicates
Relative to: plate mean
Reading: higher = more cells
Compound | nuclei count [z-score]
N[C@@H](Cc1ccc(O)c(O)c1)C(=O)O | 0.96
NC(=O)c1ncn([C@@H]2O[C@H](CO)[C@@H](O)[C@H]2O)c1N | 0.865
COc1ccc(-c2cc(=S)ss2)cc1 | 0.459

Series 6
Structure (SMILES): CCC(=O)N[C@H]1CC[C@@H](C(=O)N(C)c2ccc(-c3nc4ccccc4o3)cc2)C1
Concentration: 1 µM
target | test | remaining binding [%]
G protein-coupled receptor kinase 3 (GRK3, Homo sapiens, UniProt P35626) | cell-free assay, competition with immobilised ligand | 80
Tyrosine-protein kinase ABL1, phosphorylated (ABL1, Homo sapiens, UniProt P00519, M351T) | cell-free assay, competition with immobilised ligand | 94
Mast/stem cell growth factor receptor Kit (KIT, Homo sapiens, UniProt P10721) | cell-free assay, competition with immobilised ligand | 94
Serine/threonine-protein kinase RIO3 (RIOK3, Homo sapiens, UniProt O14730) | cell-free assay, competition with immobilised ligand | 92
Membrane-associated tyrosine- and threonine-specific cdc2-inhibitory kinase (PKMYT1, Homo sapiens, UniProt Q99640) | cell-free assay, competition with immobilised ligand | 99
cAMP-dependent protein kinase catalytic subunit PRKX (PRKX, Homo sapiens, UniProt P51817) | cell-free assay, competition with immobilised ligand | 91
Mitotic checkpoint serine/threonine-protein kinase BUB1 (BUB1, Homo sapiens, UniProt O43683) | cell-free assay, competition with immobilised ligand | 74
Cyclin-dependent kinase 4 (CDK4, Homo sapiens, UniProt P11802) | cell-free assay, competition with immobilised ligand | 78
Tyrosine-protein kinase ABL1, phosphorylated (ABL1, Homo sapiens, UniProt P00519, E255K) | binding, competition with immobilised ligand | 75
MAP kinase-activated protein kinase 2 (MAPKAPK2, Homo sapiens, UniProt P49137) | cell-free assay, competition with immobilised ligand | 97
Testis-specific serine/threonine-protein kinase 1 (TSSK1B, Homo sapiens, UniProt Q9BXA7) | cell-free assay, competition with immobilised ligand | 91
Serine/threonine-protein kinase MRCK gamma (CDC42BPG, Homo sapiens, UniProt Q6DT37) | competition binding | 91
Proto-oncogene tyrosine-protein kinase receptor Ret (RET, Homo sapiens, UniProt P07949) | cell-free assay, competition with immobilised ligand | 92
Receptor-type tyrosine-protein kinase FLT3 (FLT3, Homo sapiens, UniProt P36888, N841I) | cell-free assay, competition with immobilised ligand | 100
Platelet-derived growth factor receptor alpha (PDGFRA, Homo sapiens, UniProt P16234) | cell-free assay, competition with immobilised ligand | 85
Mitogen-activated protein kinase kinase kinase kinase 3 (MAP4K3, Homo sapiens, UniProt Q8IVH8) | cell-free assay, competition with immobilised ligand | 85

Repeated from above (series 4):
Structure (SMILES) | remaining compound
CC(C)=C1CC[C@H](C)[C@](C)(COc2ccc3ccc(=O)oc3c2)[C@@H]1CCC(N)=O | 0%
CCc1ccc(S(=O)(=O)c2nnn3c2[nH]c(=O)c2sccc23)cc1 | 63.7%
O=C(NC1CCOCC1)N1CCC(CCc2ccc(O)cc2)CC1 | 93.3%
